Measured values of several laboratories.
Parts stem from different laboratories: compare values within a part only.

Set 1 — method: protein-binding microarray; form: double-stranded DNA, one strand shown; matrix: in vitro; tested at: 2540 nM top; notes: 60-bp whole probe; together with: salmon DNA 0.4 mg/ml; baseline: random background probes; direction: higher = stronger binding
Target: Interferon regulatory factor 3, full length, phosphomimetic (IRF3, Homo sapiens, UniProt Q14653, residues 1-427, S386D/S396D/S398D/S402D/T404D/S405D)
Target sequence (chain): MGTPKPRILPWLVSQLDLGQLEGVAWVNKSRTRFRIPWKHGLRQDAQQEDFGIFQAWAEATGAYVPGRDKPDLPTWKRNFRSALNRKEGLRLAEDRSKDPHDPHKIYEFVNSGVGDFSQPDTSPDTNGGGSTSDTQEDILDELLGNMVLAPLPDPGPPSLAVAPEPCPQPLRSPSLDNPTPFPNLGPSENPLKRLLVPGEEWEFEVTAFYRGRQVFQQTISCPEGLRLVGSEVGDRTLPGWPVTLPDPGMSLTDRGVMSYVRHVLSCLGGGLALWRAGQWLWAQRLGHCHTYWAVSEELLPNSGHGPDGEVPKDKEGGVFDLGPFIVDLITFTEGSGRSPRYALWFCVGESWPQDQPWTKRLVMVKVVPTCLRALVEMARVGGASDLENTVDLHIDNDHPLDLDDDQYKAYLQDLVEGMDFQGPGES
| Strand | fitted relative affinity |
| --- | --- |
| GCCTAGCACGACGATTTCAGTCTTGAGACGTGCTAGGTCTTGATTCGCTTGACGCTGCTG | 2.47 z-score |
| GCCTAGCACTTAGGTTTCCCTCTCCTTTAGTGCTAGGTCTTGATTCGCTTGACGCTGCTG | 7.89 z-score |
| GCCTAGCACGACGATCTAAGTCTCGAGACGTGCTAGGTCTTGATTCGCTTGACGCTGCTG | 0.149 z-score |
| GCCTAGCACGACGTTTTCGGGACTGGAGACGTGCTAGTCTTGATTCGCTTGACGCTGCTG | 2.02 z-score |

Set 2 — method: RNA Bind-n-Seq; form: RNA; matrix: in vitro; tested at: 20 nM; notes: 6-mer, flanks averaged, single round; together with: 150 mM KCl; baseline: input library; direction: higher = stronger binding
Target: TAR DNA-binding protein 43, full length, His tag (TARDBP, Homo sapiens, UniProt Q13148, residues 1-414)
| Strand | 6-mer enrichment (R) |
| --- | --- |
| UCAGAA | 0.657 |
| AGGUCA | 0.796 |
| UGGGUA | 1.85 |
| AAACCA | 0.618 |

Set 3 — method: protein binding microarray; form: double-stranded DNA, one strand shown; matrix: in vitro; tested at: not given; baseline: not given; direction: higher = stronger binding
Target: Histone acetyltransferase KAT6A, winged helix 2, GST fusion (KAT6A, Homo sapiens, UniProt Q92794, residues 85-181)
Notes: 8-mer, flanks averaged, mean of 2 arrays, mostly near background
Target sequence (chain): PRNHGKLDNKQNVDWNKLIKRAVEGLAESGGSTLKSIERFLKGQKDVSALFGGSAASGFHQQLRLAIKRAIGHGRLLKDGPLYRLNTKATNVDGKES
| Strand | E-score |
| --- | --- |
| CACTCATA | -0.11 |
| ACGCACCA | 0.206 |
| AACCCCTA | -0.225 |
| CGTGCCAG | 0.0111 |
| GAACTGTC | -0.0868 |
| ATTCTGCG | 0.0163 |
| GACGCAAC | 0.154 |
| CGCTCAAG | 0.0301 |
| AGAAACAT | 0.094 |

Single results of other studies
| Substance | target | test | test system | setting | how to read | measurement | result |
| --- | --- | --- | --- | --- | --- | --- | --- |
| PhoQ, residues 284 288 289 292 302 303 GANMMA | PhoP, residues 12 14 15 18 19 GHCSL (Escherichia coli, UniProt P23836) | Sort-seq, refers to: YFP reporter | E. coli | PhoQ-PhoP variant library, together with: 10 µM Mg2+ | baseline: high Mg2+ state, higher = stronger signaling | fold induction | 5.36 |

Some of these lines once more (set 3):
| Strand | E-score |
| --- | --- |
| ATTCTGCG | 0.0163 |
